# Published values pooled from the literature.
# Each line is one published result; not all experiments were run side by side. Several values in a cell are separate wells, animals, samples, runs or records. ± gives the spread as reported.
Structure (SMILES),target or system,test,system,setting,scale,measurement,result
COCC1CN(C2CCN(c3cc(OC)c(Nc4ncc(Br)c(Nc5ccc6c(c5P(C)(C)=O)OCCO6)n4)cc3C)CC2)C1,,,"EGFR-mutant NSCLC patients, plasma","oral, 150 mg single dose, geometric mean",,AUC(0-t),15.3 µg·h/mL
CCCCN1C(=O)c2cccc3c(NCCN4CCOCC4)ccc(c23)C1=O,,,water,pH 6.0,,Stokes shift,97 nm
C/C(N)=N/C(=N\S(=O)(=O)c1ccc(C(F)(F)F)cc1)N1C[C@H](c2ccccc2)C(c2ccc(Cl)cc2)=N1,,,"Beagle dog, plasma","oral, 36 mg/kg",,Cmax,2.49 µg/mL
CC(C)C[C@@H](NC(=O)[C@@H](CC(C)C)NC(=O)[C@@H](CC(=O)O)NC(=O)[C@@H](CC(C)C)NC(=O)[C@@H](CC(C)C)NC(=O)[C@@H](CC(C)C)NC(=O)[C@H](NC(=O)[C@@H](CC(=O)O)NC(=O)[C@H](NC(=O)[C@H]1CCCN1C(=O)[C@@H](Cc1ccccc1)NC(=O)[C@@H](CC(C)C)NC(=O)[C@@H](CC(C)C)NC(=O)[C@@H](CC(=O)O)NC(=O)[C@@H](CC(C)C)NC(=O)[C@@H](Cc1ccc(O)cc1)NC(=O)[C@@H](C)NC(=O)[C@@H](CCCNC(=N)N)NC(=O)[C@@H](Cc1c[nH]c2ccccc12)NC(=O)[C@H]1CCCN1C(=O)[C@@H](CC(N)=O)NC(=O)[C@@H](CCC(N)=O)NC(=O)[C@@H](CC(=O)O)NC(=O)[C@@H](CC(=O)O)NC(=O)[C@@H](CSC1CC(=O)N(CCNC(=O)CN2CCN(CC(=O)O)CCN(CC(=O)O)CC2)C1=O)NC(=O)[C@@H](C)N)[C@H](C)O)[C@H](C)O)C(=O)N[C@H](Cc1c[nH]c2ccccc12)C(=O)O (stereo partly drawn) [copper-64 labelled],,,"C57BL/6 mice, female, B16-F10 melanoma, tumor","intravenous, 12 h",,tissue uptake,11.6 %ID/g
C#CCCCC(F)/C=C/C(=O)NC1(c2ccc(-c3nc4ccn5c(=O)[nH]nc5c4cc3-c3ccccc3)cc2)CCC1 (stereo not drawn),,,"microsomes, liver, mouse CD-1","1 µM, pH 7.4, 37 °C, phosphate buffer 100 mM, added: NADPH",,first-order rate constant,-0.045 ± 0.004 min⁻¹
CC[C@H](C)[C@@H]1NC(=O)[C@H](Cc2ccc(O)cc2)NC(=O)CCCSC[C@@H](C(=O)N(CC(=O)N[C@@H](CC(C)C)C(=O)NCC(N)=O)Cc2ccc(F)cc2)NC(=O)[C@H](CC(N)=O)NC(=O)[C@H](CCC(N)=O)NC1=O,,,human,"intranasal, 200 µg single dose",,drug-related headache,50%
[2H]C([2H])([18F])Oc1cc(C(=O)OCC2CCN(CCCC)CC2)ccc1N,,"radioligand hydrolysis, esterase inhibitor",rhesus monkey whole blood,concentration not given,,inhibition,93 ± 2%
Cc1ccc(OCC(=O)N(Cc2cccs2)c2ccn[nH]2)cc1,,,pooled dog liver microsomes,"10 µM, 60 min, without NADPH",relative to: time 0,remaining compound,88%
C=C(NC(=O)c1csc(-c2nc3c(cc2O)-c2nc(cs2)C(=O)NC(C(C)O)C(=O)NC(=C(C)OC)c2nc(cs2)C(=O)NC2c4nc(cs4)C(=O)NC(COC(=O)c4c5c6c(cccc6n4O)COC(=O)C(OC4CC(C)(O)C(N(C)C)C(C)O4)C2OC5)c2nc-3cs2)n1)C(N)=O (stereo not drawn),,,"Sprague-Dawley rat, female, plasma","intravenous infusion, 2 mg/kg single dose",,clearance,2.17 L/h/kg
[123I]c1ccc2nc(-c3ccc(-n4ccnn4)nc3)cn2c1,,,"male Wistar rat, brain","intravenous, 4 MBq, 3 h",,tracer uptake,0.006 %ID/g
Cc1cc(C)n(CCN(CCN)CCCCCCNC(=O)[C@@H](N)Cc2c[nH]cn2)n1.[99Tc+].[C-]#[O+].[C-]#[O+].[C-]#[O+],,,"BALB/c nude mice, A549 xenograft, spleen","intravenous, 4 h",,tissue uptake,0.42 ± 0.09 %IA/g
COc1ccc2c(c1)CCn1c[n+]3c(c1-2)-c1ccc(OC)cc1CC3,,,"female NSG mice, blood","6 mg/kg, day 20, 5 days per week",,Monocytes,14.9 ± 4.98%
COc1cccc(OC)c1-c1cc(C(=O)NC2(C(=O)O)C3CC4CC(C3)CC2C4)nn1-c1ccc(C(=O)N(C)CCOCCN(C)C(=O)[C@H](CCCCNC(=O)[C@H](CC(C)C)NC(=O)C2OC2C(=O)O)NC(=O)CN2CCN(CC(=O)[O-])CCN(CC(=O)[O-])CCN(CC(=O)[O-])CC2)cc1C(C)C.[177Lu+3] (mixture of isomers),,,"mouse, HT-29 xenograft, brain",24 h post injection,,tissue uptake,0.17 %ID/g
O=C([O-])CN1CCN(CC(=O)[O-])CCN(CC(CCCc2ccccc2[N+](=O)[O-])N(CC(=O)[O-])CC(=O)[O-])CC1.[90Y+3] (stereo not drawn),,TLC,human serum,"0 h, pH 7, 37 °C",,intact radiolabelled complex,100%
O=C1c2sc(-c3ccc(N4CCC(CO)CC4)nc3F)nc2CCN1c1cccnc1,,,"CD1 mouse, brain","i.v., dose not given, 0.083 h",,concentration,479 ng/g and 414 ng/g and 449 ng/g
OCC1OC(n2cnc3c(NCc4ccc(Br)s4)ncnc32)C(O)C1O (stereo not drawn),,equilibrium dialysis,rat plasma,"0.5 µg/mL, 4 h, pH 7.4",,fraction unbound,0.047
O=C(Nc1cnccc1-c1ccc([18F])cc1)c1ccnc(NC(=O)C2CC2)c1,,ex vivo gamma counting,"GSK-3β transgenic mice, early-stage, thalamus","intravenous, 120 min, mean, P-gp inhibitor pretreatment, added: tariquidar 15 mg/kg iv",,SUV,0.24
CC(C)[C@H](NC(=O)[C@H](Cc1c[nH]c2ccccc12)NC(=O)[C@H](CCCNC(=N)N)NC(=O)[C@H](CCCNC(=N)N)NC(=O)[C@@H](NC(=O)[C@@H](NC(=O)[C@H](CCCNC(=N)N)NC(=O)[C@@H](NC(=O)[C@@H](NC(=O)[C@H](CCCNC(=N)N)NC(=O)[C@H](CCCNC(=N)N)NC(=O)[C@@H](NC(=O)[C@H](Cc1c[nH]c2ccccc12)NC(=O)[C@H](CCCNC(=N)N)NC(=O)[C@H](CCCNC(=N)N)NC(=O)[C@@H](NC(=O)[C@H](CCCNC(=N)N)NC(=O)[C@H](CCCNC(=N)N)NC(=O)[C@@H](NC(=O)[C@H](Cc1c[nH]c2ccccc12)NC(=O)[C@H](CCCNC(=N)N)NC(=O)[C@@H](N)CCCNC(=N)N)C(C)C)C(C)C)C(C)C)C(C)C)C(C)C)C(C)C)C(C)C)C(=O)N[C@@H](CCCNC(=N)N)C(=O)N[C@@H](CCCNC(=N)N)C(=O)O,,,"CD1 mouse, urine","intravenous, 15 mg/kg, 6 h, [14C]-labelled compound",,sodium,< 100 mEq/L
COc1ccc(C(N)=O)cn1,,,"Han Wistar rats, male, plasma","oral, 30 mg/kg, 1.50 h",,plasma concentration,60.9 µM
O=C(N/N=C/c1ccc2c(ccc[n+]2Cc2ccccc2)c1)c1cncc(C(=O)N/N=C/c2ccc3c(ccc[n+]3Cc3ccccc3)c2)n1,MYC parallel G4 DNA,FRET melting,,"1 µM, DNA 0.2 µM",,ΔTm,11.2 ± 0.2 °C
N#C[C@@H]1CC(F)(F)CN1C(=O)CNC(=O)c1ccnc2c(NC(=O)CCOCCOCCOCCOCCOCCOCCNC(=O)[C@H](CCCCNC(=O)CN3CCN(CC(=O)[O-])CCN(CC(=O)[O-])CCN(CC(=O)[O-])CC3)NC(=O)CCCc3ccc(I)cc3)cccc12.[177Lu+3],,,human serum,"4 h, 37 °C, 177Lu-labelled",,radiochemical stability,98.7 ± 1.2%
C=CC(=O)N1CCC[C@@H](c2ccc(C(N)=O)c3[nH]ccc23)C1,,,"mouse, TMD8 tumour-bearing, plasma","7.5 mg/kg twice daily, 12 h",,trough concentration,0 ng/mL
C=CC(=O)Nc1cc(Nc2nccc(-c3c[nH]c4ccccc34)n2)c(OC)cc1N(C)CCN(C)C,,storage stability,human plasma,"10 d, -80 °C, HQC level",,recovery,102%
CCCCN1C(=O)c2cccc3c(NCCCN4CCOCC4)ccc(c23)C1=O,,,toluene,,,Stokes shift,67 nm
Nc1ncnc2[nH]c(/C=C/c3ccc(F)cc3)nc12,,HPLC,"solution, dark",before light exposure,,purity,100%
CN1CCC[C@]1(C)/C=C/S(=O)(=O)NC(=O)Nc1c2c(cc3c1CCC3)CCC2,,measured: general and administration site disorders,human,"oral, 12.5 mg twice daily, 14 days, multiple ascending dose",,subjects with adverse event,0%
C=CC(=O)Nc1cc(Nc2nccc(-c3cn(C)c4ccccc34)n2)c(OC)cc1N(C)CCNC,,,"human, dried blood spots","270 ng/mL, 2 h, on ice, high QC level",,remaining compound,103%
CCCCN1C(=O)c2cccc3c(NCCCCCN4CCOCC4)ccc(c23)C1=O,,,acetonitrile,,,Stokes shift,88 nm
CC(C)Cc1ccc(C(C)C(=O)NC(CCCCNC(=O)CCOCCOCCOCCOCCOCCOCCNC(=O)CN2CCN(CC(=O)[O-])CCN(CC(=O)[O-])CCN(CC(=O)[O-])CC2)C(=O)Nc2cccc3c(C(=O)NCC(=O)N4CC(F)(F)C[C@H]4C#N)ccnc23)cc1.[68Ga+3] (stereo partly drawn),,,PBS,"60 min, 37 °C, 68Ga-labelled",,radiochemical stability,99.9 ± 1.2%
CCCCN1C(=O)c2cccc3c(NCCCCN4CCOCC4)ccc(c23)C1=O,,,water,pH 6.0,,Stokes shift,105 nm
Cl.NCc1ccc2c(c1)CN(C1CCC(=O)NC1=O)C2=O (stereo not drawn),,,"male CD-1 mouse, whole blood",3 h,,remaining compound,> 95%
O=C1c2sc(-c3ccc(N4CCC(F)C4)nc3F)nc2CCN1c1cccnc1 (stereo not drawn),,HPLC,"rhesus monkey, plasma","intravenous, 90.02 min",,parent fraction,0.107
O=C(Nc1cnccc1-c1ccc([18F])nc1)c1ccnc(NC(=O)C2CC2)c1,,,"FVB/NJ mice (both sexes), liver","intravenous, dose not given, 120 min",,SUV,6.47
Cn1cnc([N+](=O)[O-])c1Sc1ccccc1C(=O)NCCC(N)=O,,LC-MS/MS,"CD-1 mouse, CD-1 mouse blood","1 µM, 120 min",,remaining compound,4.21%
CCC1C(COc2nccc3cc(C(N)=O)c(OC)cc23)NC(=O)C1F (stereo not drawn),,,"ICR mice, plasma","intravenous, 1 mg/kg",,clearance,4.23 ± 5.25 L/h/kg
CC(C)(O)c1ncc([S@](N)(=O)=NC(=O)Nc2c3c(cc4c2CCC4)CCC3)s1,,measured: Vascular disorders,healthy human volunteers,"oral, dose not given, 14 days, multiple dose, all active arms",,subjects with adverse events,13%
Cc1cc(-c2ccc(C(=O)[C@@H]3CCCC[C@H]3C(=O)Nc3cnn4c3C(=O)NCC4)cc2)[nH]n1,,,"human, urine","oral, 200 mg, 6-12 h",relative to: dose,recovery of radioactivity per interval,2.66%
CN1C(=O)[C@@H](Cc2ccc(O)c(I)c2)NC(=O)CNC(=O)[C@H](Cc2ccc3ccccc3c2)NC(=O)[C@H](CCCNC(=N)N)NC(=O)[C@H]1CCCNC(=O)c1ccc(CNC(=O)CN2CCN(CC(=O)O)CCN(CC(=O)O)CCN(CC(=O)O)CC2)cc1 [lutetium-177 labelled],,1,"human, extrapolated from mouse, Lower large intestine wall",,,total absorbed dose,0.044 mGy/MBq
N#C[C@@H]1CC(F)(F)CN1C(=O)CNC(=O)c1ccnc2c(NC(=O)[C@@H](N)CCCCNC(=O)CCOCCOCCOCCOCCOCCOCCNC(=O)CN3CCN(CC(=O)[O-])CCN(CC(=O)[O-])CCN(CC(=O)[O-])CC3)cccc12.[177Lu+3],,,human serum,"4 h, 37 °C, 177Lu-labelled",,radiochemical stability,99.12 ± 0.6%
CCCCN1C(=O)c2cccc3c(NCCCCCCN4CCOCC4)ccc(c23)C1=O,,,DMSO,,,Stokes shift,89 nm
C[Si]1(C)O[Si](C)(C)O[Si](C)(C)O[Si](C)(C)O[Si](C)(C)O[Si](C)(C)O1,,,octanol/water,,,octanol-water partition coefficient,7.41e+08
COc1cccc(OC)c1-c1cc(C(=O)NC2(C(=O)O)C3CC4CC(C3)CC2C4)nn1-c1ccc(C(=O)N(C)CCCN(C)C(=O)[C@H](CCCCNC(=O)[C@H](CC(C)C)NC(=O)C2OC2C(=O)O)NC(=O)CN2CCN(CC(=O)[O-])CCN(CC(=O)[O-])CCN(CC(=O)[O-])CC2)cc1C(C)C.[177Lu+3] (mixture of isomers),,,mouse HT-29 xenograft,"168 h, biodistribution",relative to: tumour over stomach,tumour-to-stomach ratio,24.1
CC[C@H](C)[C@H](NC(=O)[C@H](N)Cc1ccc(O)cc1)C(=O)N[C@H]1CSSC[C@@H](C(=O)N(C)[C@H](C(=O)N[C@@H](CCCCN)C(=O)N[C@@H](CCCCN)C(N)=O)[C@@H](C)CC)NC(=O)[C@H](CCCNC(=N)N)NC(=O)[C@H](Cc2c[nH]cn2)NC(=O)[C@H](C)NC(=O)CN(C)C(=O)[C@H](Cc2c[nH]c3ccccc23)NC(=O)[C@H](CC(=O)O)NC(=O)[C@H](CCC(N)=O)NC(=O)[C@H](Cc2cn(C)c3ccccc23)NC(=O)[C@H](C(C)C)NC1=O,,SPR-based competition,"cynomolgus monkey, vitreous","intravitreal, 500 µg single, one month after injection, mean of eyes",,concentration,~0.2 µM
CN(Cc1cc(C2CC2)on1)C(=O)c1cccc(-c2ccc(F)cc2)c1,,,"male ICR/CD-1 mouse, liver microsomes","2 µM, 15 min, pH 7.5, without ABT",,remaining compound,39.6%
CN(O)C(=O)CCC(=O)NCCCN(CCCCN(CCCNC(=O)CCC(=O)N(C)O)C(=O)CCC(=O)N(C)O)C(=O)CCC(=O)N(C)O.[89Zr],,,mouse plasma,"7 d, 37 °C",,intact complex,100%
